Assay results of several laboratories.
Lines come from different studies, so protocols differ.
Organism: Staphylococcus aureus

| Compound | test | test system | setting | MIC |
| --- | --- | --- | --- | --- |
| CC[C@H](C)[C@H](NC(=O)[C@H](CCCCN)NC(=O)[C@H](CC(N)=O)NC(=O)[C@H](Cc1c[nH]c2ccccc12)NC(=O)[C@H](Cc1ccccc1)NC(=O)[C@H](CCCCN)NC(=O)[C@H](CCCCNC(=N)N)NC(=O)[C@H](CC(C)C)NC(=O)[C@H](Cc1c[nH]c2ccccc12)NC(=O)[C@H](CCCCN)NC(=O)[C@H](CCCCNC(=N)N)NC(=O)[C@H](CC(C)C)NC(=O)CNC(C)=O)C(=O)N[C@@H](CCCCN)C(=O)N[C@@H](CCCCNC(=N)N)C(N)=O | broth microdilution | multidrug-resistant | – | 3.12 µM |
| CCCCCCCCCCCCCC[S+]([O-])CC1OC(OC2C(N)CC(N)C(OC3OC(CN)C(O)CC3N)C2O)C(O)C(N)C1O (mixture of isomers) | – | NorA | – | 18.8 µg/mL |
| CC[C@H](C)[C@H](NC(=O)[C@H](CC(C)C)NC(=O)CCNC(=O)[C@H](CO)NC(=O)[C@H](CCCNC(=N)N)NC(=O)[C@@H](N)CO)C(=O)N[C@H](C(=O)N[C@@H](Cc1c[nH]cn1)C(=O)N[C@@H](CCC(N)=O)C(=O)N[C@@H](CCCNC(=N)N)C(=O)N[C@@H](CC(C)C)C(=O)N[C@@H](Cc1ccccc1)C(N)=O)C(C)C | broth microdilution | Mueller Hinton broth | – | > 400 µg/mL |
| CC(=O)N[C@@H](CCCNC(=N)N)C(=O)N[C@@H](Cc1c[nH]c2ccccc12)C(=O)N[C@@H](CCCNC(=N)N)C(=O)N[C@@H](Cc1c[nH]c2ccccc12)C(=O)N[C@@H](Cc1c[nH]c2ccccc12)C(=O)N[C@@H](CCCCN)C(=O)N[C@@H](Cc1ccccc1)C(=O)N[C@H](C(N)=O)C(C)C | – | MRSA ATCC 33591, MEM medium | overnight, 37 °C | 1.4 µM |
| CC(C)c1ccc2c(c1)CCC1C(C)(CN(CC(O)C[N+](C)(C)C)CC(O)C[N+](C)(C)C)CCCC21C (stereo not shown) | microbial growth | ATCCBAA44 MRSA | drug-resistant strain | 312 µg/mL |
| CC[C@H](C)[C@H](NC(=O)[C@H](CCCCN)NC(=O)[C@@H]1CCCN1C(=O)[C@@H](NC(=O)[C@H](CC(C)C)NC(=O)[C@H](CCCCN)NC(=O)[C@H](CC(C)C)NC(=O)[C@@H](NC(=O)[C@H](CO)NC(=O)CNC(=O)[C@H](Cc1ccccc1)NC(=O)[C@@H](N)Cc1ccccc1)C(C)C)[C@@H](C)CC)C(=O)N[C@@H](CC(C)C)C(N)=O | broth microdilution | USA300 MRSA | – | 3.12 µM |
| C/C(=N\NC(=N)N)c1nnn(-c2ccc(S(=O)(=O)NCC(C)C)cc2)c1C | microbial growth, broth dilution | MRSA USA300 | drug-resistant strain | 4 µg/mL |
| CC[C@H](C)[C@H](NC(=O)[C@@H](Cc1ccccc1)NC)C(=O)N[C@@H](CO)C(=O)N[C@H](CCC(N)=O)C(=O)N[C@@H](C(=O)N[C@H](C(=O)N[C@@H](CO)C(=O)N[C@H]1C(=O)N[C@@H](C)C(=O)N[C@@H](C2CCCCC2)C(=O)N[C@@H]([C@@H](C)CC)C(=O)O[C@H]1C)[C@@H](C)CC)[C@@H](C)CC | broth microdilution | ATCC 700698, MRSA, brain heart infusion broth | 16 h, 37 °C | 1 µg/mL |
| CN(C)CCCNC(=O)[C@@H]1NC(=O)[C@@H]2Cc3ccc(cc3)Oc3cc4cc(c3O)-c3ccc5c(c[nH]c5c3)C[C@@H](NC(=O)C(N)c3ccc(O)cc3)C(=O)N[C@H](c3ccc(O)cc3)C(=O)N[C@H]4C(=O)N[C@@H](C(=O)N2C)c2ccc(cc2)Oc2cc1ccc2O (stereo partly shown) | – | ATCC 33591 MRSA, Mueller-Hinton broth | – | > 128 µg/mL |
| CN[C@H](CC(C)C)C(=O)N[C@H]1C(=O)N[C@@H](CC(N)=O)C(=O)N[C@H]2C(=O)N[C@H]3C(=O)N[C@H](C(=O)N[C@H](C(=O)O)c4cc(O)cc(O)c4-c4cc3ccc4O)[C@H](O)c3ccc(c(Cl)c3)Oc3cc2cc(c3O[C@@H]2O[C@H](CO)[C@@H](O)[C@H](O)[C@H]2O[C@H]2C[C@](C)(NCc3ccc(OCc4cn(CCOCCOCCOCCC(=O)N[C@H](C(=O)N[C@@H](CCN)C(=O)N[C@H]5CCNC(=O)[C@H]([C@@H](C)O)NC(=O)[C@H](CCN)NC(=O)[C@H](CCN)NC(=O)[C@H](CC(C)C)NC(=O)[C@@H](CC(C)C)NC(=O)[C@H](CCN)NC5=O)[C@@H](C)O)nn4)c(OC)c3)[C@H](O)[C@H](C)O2)Oc2ccc(cc2Cl)[C@H]1O | broth microdilution | MSSA ATCC 29213 | 20 to 24 h, 37 °C, 0.002% polysorbate 80 | 0.5 µg/mL |
| CC(C)C[C@@H]1NC(=O)[C@H](C)NC(=O)[C@H](NC(=O)[C@@H](N)COC(=O)[C@@H](C)NC(=O)[C@@H](CC(C)C)NC(=O)[C@@H](N)Cc2ccccc2)[C@H](C(N)=O)OC(=O)[C@H](CC(C)C)NC1=O | – | MSSA ATCC 29213 | TFA salt | > 32 µg/mL |
| CC[C@H](C)[C@H](NC(=O)[C@@H](CCCNC(=N)N)NC(=O)[C@H](CCCNC(=N)N)NC(=O)[C@H](CCCNC(=N)N)NC(=O)[C@H](Cc1c[nH]c2ccccc12)NC(=O)[C@H](CCCNC(=N)N)NC(=O)[C@@H]1CCCN1C(=O)[C@H](CCCNC(=N)N)NC(=O)[C@@H]1CCCN1C(=O)[C@H](CC(C)C)NC(=O)[C@H](Cc1ccc(O)cc1)NC(=O)[C@@H]1CCCN1C(=O)[C@@H]1CCCN1C(=O)[C@H](CCCCN)NC(=O)[C@H](CC(=O)O)NC(=O)[C@@H](N)C(C)C)C(=O)N[C@@H](Cc1ccc(O)cc1)C(=O)N[C@@H](CC(N)=O)C(=O)N[C@H](CCCNC(=N)N)C(N)=O | broth microdilution | DSM 6247 | 18 h | 16 µg/mL |
| COc1ccc2c(oc3c4ccc(O)cc4oc(=O)c23)c1CC=C(C)C | – | – | – | inactive |
| COc1ccc2ccc3c(c2c1)C=[N+]1C2CCCCC2[N+]2=Cc4c(C)cccc4[O][Au-]21[O]3.F[P-](F)(F)(F)(F)F (stereo not shown) | bacterial growth, broth microdilution | vancomycin-intermediate | 24 h | 20 µM |
| CCCO[C@H]1[C@H](O)[C@@H](N)[C@@H](O[C@H]2[C@H](O[C@@H]3O[C@H](CO)[C@@H](O[C@H]4O[C@@H](CN)[C@@H](O)[C@H](O)[C@H]4N)[C@H]3O)[C@@H](O)[C@H](N)C[C@@H]2N)O[C@@H]1CO | broth microdilution | MRSA isolate AG 042 | – | 8 to 16 µg/mL |
| CC[C@H](C)[C@H](N)C1=N[C@H](C(=O)N[C@@H](Cc2ccccc2)C(=O)N[C@H](CCC(=O)O)C(=O)N[C@H](C(=O)N[C@H]2CCCCNC(=O)[C@H](CC(N)=O)NC(=O)[C@@H](CC(=O)O)NC(=O)[C@H](Cc3c[nH]cn3)NC(=O)[C@@H](Cc3ccccc3)NC(=O)[C@H]([C@@H](C)CC)NC(=O)[C@@H](CCCN)NC2=O)[C@@H](C)CC)CS1 | broth microdilution | ATCC 29213, LB medium | 18 h, 37 °C, together with: ZnSO4 0.3 mM | 2 µg/mL |
| CN1C(=O)[C@@H]2NC(=O)[C@@H]3NC(=O)[C@@H](c4ccc(O)cc4)NC(=O)[C@H](NC(=O)C(N)c4ccc(O)cc4)Cc4c[nH]c5cc(ccc45)-c4cc3cc(c4O)Oc3ccc(cc3)C[C@H]1C(=O)N[C@@H](C(=O)NCCC[N+]1(C)CCCC1)c1ccc(O)c(c1)Oc1ccc2cc1 (stereo partly shown) | – | ATCC 33591 MRSA, Mueller-Hinton broth | – | > 128 µg/mL |
| CC(C)[C@H](NC(=O)[C@H](CCCCN)NC(=O)[C@H](CCCNC(=N)N)NC(=O)CNC(=O)[C@H](C)NC(=O)[C@H](CC(N)=O)NC(=O)[C@H](CCCNC(=N)N)NC(=O)[C@@H](NC(=O)[C@H](CCCCN)NC(=O)[C@H](CC(=O)O)NC(=O)[C@@H](NC(=O)[C@@H](NC(=O)[C@H](CCCNC(=N)N)NC(=O)[C@H](CCCNC(=N)N)NC(=O)[C@H](Cc1c[nH]c2ccccc12)NC(=O)[C@H](Cc1c[nH]c2ccccc12)NC(=O)CN)[C@@H](C)O)C(C)C)C(C)C)C(=O)O | bacterial growth | MRSA clinical isolate | 18 h | > 256 µg/mL |
| CC(C)C[C@@H]1NC(=O)[C@H](C)NC(=O)[C@H](NC(=O)[C@H](C)NC(=O)[C@@H](CCCCN)NC(=O)[C@@H](CC(C)C)NC(=O)[C@@H](N)Cc2ccccc2)[C@H](C(N)=O)OC(=O)[C@H](CC(C)C)NC1=O | – | MRSA ATCC 700698 | TFA salt | 8 µg/mL |
| CC1=CC2(C)C(=C(C)C3C4CC(C)CC(C)C4C4Oc5ccc(cc5)CC5(O)NC(=O)C(=C(O)C2C43)C5Nc2ncnc3c2ncn3C2OC(CO)C(O)C2O)C1C (stereo not shown) | microbial growth, broth dilution | ATCC700699 MRSA | drug-resistant strain | 6.3 µM |
| CC[C@H](C)[C@H](NC(=O)CNC(=O)[C@H](CCCCN)NC(=O)[C@H](C)NC(=O)[C@H](CCC(=O)O)NC(=O)[C@H](Cc1ccccc1)NC(=O)[C@H](CO)NC(=O)[C@H](CC(C)C)NC(=O)[C@@H](NC(=O)[C@H](CC(=O)O)NC(=O)[C@H](C)NC(=O)[C@@H](NC(=O)[C@@H](N)C(C)C)[C@@H](C)O)C(C)C)C(=O)N[C@@H](C)C(=O)N[C@H](C(=O)N[C@@H](CC(N)=O)C(=O)N[C@@H](Cc1c[nH]cn1)C(=O)N[C@@H](CO)C(=O)N[C@@H](C)C(=O)N[C@H]1CSSC[C@@H]2NC(=O)[C@H](C(C)C)NC(=O)CNC(=O)[C@H](CC(N)=O)NC(=O)[C@H](CCC(N)=O)NC(=O)[C@H](C)NC(=O)[C@H](CO)NC(=O)CNC(=O)CNC(=O)[C@H](CCCCN)NC(=O)[C@H](CCCCN)NC(=O)[C@H](CCCNC(=N)N)NC(=O)[C@H](CC(C)C)NC(=O)[C@H](C)NC(=O)[C@H]([C@@H](C)CC)NC(=O)[C@H](CSSC[C@@H](C(=O)N[C@@H](CCCNC(=N)N)C(=O)N[C@@H](CC(N)=O)C(=O)O)NC(=O)[C@H](C(C)C)NC2=O)NC(=O)[C@H](Cc2c[nH]cn2)NC(=O)[C@H](CC(C)C)NC(=O)[C@H](C)NC1=O)C(C)C | broth microdilution | KCTC 1621 | 16 h, 37 °C | > 100 µM |
| CCCCN1C(=O)/C(=N\NC(=N)N)c2cc(C)ccc21 | broth microdilution | BAA41 MRSA | 18 h, 37 °C | 96 µg/mL |

Some of these lines once more:
| Compound | test | test system | setting | MIC |
| --- | --- | --- | --- | --- |
| COc1ccc2c(oc3c4ccc(O)cc4oc(=O)c23)c1CC=C(C)C | – | – | – | inactive |
| CCCO[C@H]1[C@H](O)[C@@H](N)[C@@H](O[C@H]2[C@H](O[C@@H]3O[C@H](CO)[C@@H](O[C@H]4O[C@@H](CN)[C@@H](O)[C@H](O)[C@H]4N)[C@H]3O)[C@@H](O)[C@H](N)C[C@@H]2N)O[C@@H]1CO | broth microdilution | MRSA isolate AG 042 | – | 8 to 16 µg/mL |
